Published values collected from several papers.
Compare with care: the assays were run in different laboratories. “And” joins repeats or separate records; there may be more than shown. Numbers after ± are the reported error. ≈ marks a conversion by molar mass, not a printed value.

O=C(c1ccc([C@H]2[C@@H](F)[C@@H](F)C[C@@H](F)[C@H]2F)cc1)N1CCCC1 — hepatic clearance (liver microsome stability; dog liver microsomes; 1 µM): 10 mL/min/kg
C=C(NC(=O)c1csc(-c2nc3c(cc2O)-c2nc(cs2)C(=O)NC(C(C)O)C(=O)NC(=C(C)OC)c2nc(cs2)C(=O)NC2c4nc(cs4)C(=O)NC(COC(=O)c4c5c6c(cccc6n4O)COC(=O)C(OC4CC(C)(O)C(N(C)C)C(C)O4)C2OC5)c2nc-3cs2)n1)C(N)=O (stereo not drawn) — Cmax (cynomolgus monkey, both sexes, plasma; intravenous infusion, 1.5 mg/kg twice daily, 0 to 30 h): 15200 ng/mL
O=c1c2ccccc2[se]n1CCCCCCn1[se]c2ccccc2c1=O — solubility (shake-flask, RP-HPLC; 10% PEG2000 solution; 24 h, 25 °C): 7 ± 2 µg/mL (≈ 14.6 µM)
COc1cccc(OC)c1-c1cc(C(=O)NC2(C(=O)O)C3CC4CC(C3)CC2C4)nn1-c1ccc(C(=O)NCCNC(=O)[C@H](CCCCNC(=O)[C@H](CC(C)C)NC(=O)C2OC2C(=O)O)NC(=O)CN2CCN(CC(=O)[O-])CCN(CC(=O)[O-])CCN(CC(=O)[O-])CC2)cc1C(C)C.[177Lu+3] (mixture of isomers) — tumour-to-bone ratio (mouse, HT-29 xenograft; 72 h post injection, biodistribution; relative to: tumour over bone uptake): 76.8
O=C(Nc1ccc([C@H]2[C@@H](F)[C@@H](F)C[C@@H](F)[C@H]2F)cc1)C1CC1 — hepatic clearance (liver microsome stability; cynomolgus liver microsomes; 1 µM): 4.9 mL/min/kg
CC(C)(O)Cn1nc(-c2ccccc2)c2c(Cl)c(-c3ccccc3)nnc21 — AUC (mouse juvenile P6, plasma; intraperitoneal, 10 mg/kg): 5.87 µM·h
CCN(CC)c1ccc2c(c1)O[B-]1(c3ccccc3)OC(=O)C(c3ccccc3)=N[N+]1=C2 (stereo not drawn) — fluorescence lifetime (toluene): 2.41 ns
CC(C)C[C@@H](NC(=O)[C@H](NC(=O)[C@H]1CCCN1)[C@H](C)O)C(=O)N[C@H](Cc1c[nH]cn1)C(=O)N[C@@H](C(=O)N[C@H](Cc1c[nH]cn1)C(=O)N[C@H](CC(N)=O)C(=O)N[C@H](CCCNC(=N)N)C(=O)N[C@H](CCCNC(=N)N)C(=O)N[C@H](CCCNC(=N)N)C(=O)N[C@H](CCCNC(=N)N)C(=O)N[C@H](CCCNC(=N)N)C(N)=O)[C@H](C)O — cholesterol (Beagle dog, blood; oral, 30 mg/kg daily, 3 months): 5.4 ± 1.2 mmol/L
CN1CCC[C@]1(C)/C=C/S(=O)(=O)NC(=O)Nc1c2c(cc3c1CCC3O)CCC2 (stereo partly drawn) — AUC(0-inf) (human, plasma; oral, 12.5 mg twice daily of parent drug, day 14, metabolite of dosed drug): 298 µg·h/mL
Cc1nn(-c2nc3c(F)cc(F)cc3s2)c(O)c1C(c1ccc(C(F)(F)F)cc1)c1c(C)nn(-c2nc3c(F)cc(F)cc3s2)c1O — plasma concentration (ICR mouse; intravenous, 5 mg/kg, 24.0 h): 272 ng/mL and 1770 ng/mL and 253 ng/mL
COc1ccc(Nc2nc(Nc3ccc(OCCOCCOCC[18F])cc3)ncc2Br)cc1 — uptake ratio (ICR mice, S180 tumour; intravenous, 370 kBq, 30 min; relative to: tumour over muscle): 1.57
CC[C@H](C)[C@@H]1NC(=O)[C@H](Cc2ccc(O)cc2)NC(=O)CCCSC[C@@H](C(=O)N(CC(=O)N[C@@H](CC(C)C)C(=O)NCC(N)=O)Cc2ccc(F)cc2)NC(=O)[C@H](CC(N)=O)NC(=O)[C@H](CCC(N)=O)NC1=O — AE leading to discontinuation (human; intranasal, 100 µg single dose): 0%
CC(C)CC(=O)Nc1ccc(C2CCCCC2)cc1 — hepatic clearance (hepatocyte stability; cryopreserved human hepatocytes; 1 µM): 15 mL/min/kg
COc1cccc(OC)c1-c1cc(C(=O)NC2(C(=O)O)C3CC4CC(C3)CC2C4)nn1-c1ccc(C(=O)N(C)CCCN(C)C(=O)[C@H](CCCCNC(=O)[C@H](CC(C)C)NC(=O)C2OC2C(=O)O)NC(=O)CN2CCN(CC(=O)[O-])CCN(CC(=O)[O-])CCN(CC(=O)[O-])CC2)cc1C(C)C.[177Lu+3] (mixture of isomers) — tumour-to-kidney ratio (mouse, HT-29 xenograft; 168 h post injection, biodistribution; relative to: tumour over kidney uptake): 0.79
F[C@@H]1[C@H](c2ccc(-c3cnc(N4CCOCC4)nc3)cc2)[C@H](F)[C@H](F)C[C@@H]1F — hepatic clearance (hepatocyte stability; cryopreserved mouse hepatocytes; 1 µM): 33 mL/min/kg
O=C(Nc1cnccc1-c1ccc([18F])cc1)c1ccnc(NC(=O)C2CC2)c1 — mean SUV (ex vivo gamma counting; GSK-3β transgenic mice, late-stage, lung; intravenous, 120 min, added: tariquidar 15 mg/kg iv): 0.63
CN(CC(F)(F)F)C(=O)CN1CN(c2ccccc2)C2(CCN(C(=O)c3ccc4[nH]ncc4c3)CC2)C1=O — CLint (mouse liver microsomes): 340 µL/min/mg protein
O=C(c1ccc([C@H]2[C@@H](F)[C@@H](F)C[C@@H](F)[C@H]2F)cc1)N1CCC(F)CC1 — hepatic clearance (liver microsome stability; cynomolgus liver microsomes; 1 µM): 20 mL/min/kg

A few entries again:
F[C@@H]1[C@H](c2ccc(-c3cnc(N4CCOCC4)nc3)cc2)[C@H](F)[C@H](F)C[C@@H]1F — hepatic clearance (hepatocyte stability; cryopreserved mouse hepatocytes; 1 µM): 33 mL/min/kg
O=C(Nc1cnccc1-c1ccc([18F])cc1)c1ccnc(NC(=O)C2CC2)c1 — mean SUV (ex vivo gamma counting; GSK-3β transgenic mice, late-stage, lung; intravenous, 120 min, added: tariquidar 15 mg/kg iv): 0.63
